Experimental data collected from several papers.
Numbered parts are unrelated; each lists some results of a single study. Substitutions count along the parent as printed.

Sample 1 — target: inorganic phosphate, free oxyanion; method: microfluidic competitive inhibition; sample: in vitro, cell-free expressed; concentration: not given; direction: lower = stronger binding
Setting: derived from inhibition constants, unchanged parent 615000 nM
Parent: PafA, mature enzyme, eGFP fusion (Elizabethkingia meningoseptica, UniProt Q9KJX5); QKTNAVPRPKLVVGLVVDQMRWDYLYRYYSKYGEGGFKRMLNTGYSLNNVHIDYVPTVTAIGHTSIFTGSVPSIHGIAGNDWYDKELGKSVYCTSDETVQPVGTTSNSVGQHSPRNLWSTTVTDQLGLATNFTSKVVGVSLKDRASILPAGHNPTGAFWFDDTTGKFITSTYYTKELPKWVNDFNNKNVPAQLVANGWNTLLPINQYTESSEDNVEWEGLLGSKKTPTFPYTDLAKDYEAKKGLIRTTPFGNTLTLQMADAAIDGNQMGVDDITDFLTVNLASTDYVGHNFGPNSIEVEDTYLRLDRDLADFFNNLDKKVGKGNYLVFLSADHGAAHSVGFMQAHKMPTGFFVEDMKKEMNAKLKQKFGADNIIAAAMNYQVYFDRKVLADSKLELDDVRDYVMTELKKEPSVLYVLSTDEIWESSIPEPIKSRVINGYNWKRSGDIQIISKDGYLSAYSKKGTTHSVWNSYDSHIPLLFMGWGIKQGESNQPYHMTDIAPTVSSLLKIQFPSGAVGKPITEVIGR
Substitution | phosphate dissociation constant
K387V | 680 µM
G292A | 557 µM
A336V | 462 µM
V194A | 572 µM
S108V | 704 µM
G127A | 510 µM

Mixed results — CCNF: CCNF, cyclin fold, Cln2 fusion (human)
P1: viral docking peptide; YKVKRRLVFGADD; partner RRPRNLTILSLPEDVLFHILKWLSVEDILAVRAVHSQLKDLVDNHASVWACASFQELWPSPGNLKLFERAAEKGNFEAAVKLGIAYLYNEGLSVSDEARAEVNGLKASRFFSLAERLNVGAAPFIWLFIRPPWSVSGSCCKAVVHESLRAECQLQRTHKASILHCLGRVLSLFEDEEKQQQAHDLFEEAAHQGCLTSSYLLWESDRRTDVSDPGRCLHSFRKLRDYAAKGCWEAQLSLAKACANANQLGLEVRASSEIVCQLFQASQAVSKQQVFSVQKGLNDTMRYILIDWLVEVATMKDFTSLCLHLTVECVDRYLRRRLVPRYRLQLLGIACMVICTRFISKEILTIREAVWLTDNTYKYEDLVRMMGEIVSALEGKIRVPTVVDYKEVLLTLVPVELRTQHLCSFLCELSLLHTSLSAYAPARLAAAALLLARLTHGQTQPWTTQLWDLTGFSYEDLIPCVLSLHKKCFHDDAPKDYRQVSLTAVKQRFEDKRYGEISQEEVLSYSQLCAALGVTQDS
Molecule | target or system | assay | system | setting | scale | quantity | result
P1 D12C | CCNF | yeast growth competition, sequencing | yeast | strong parent motif | baseline: not given, higher = stronger binding | normalised enrichment score | 8.77
C[C@H]1CCC[C@H](O)CCCCCc2cc(O)cc(O)c2C(=O)O1 | Sarcocystis neurona | parasite activity | – | 10 µM, 96 h | – | activity class | inactive
AAAVRKPIVLKR | Saccharomyces cerevisiae | peptide binding, yeast competitive growth sequencing | peptide, cyclin F-Cln2 fusion | concentration not given, tiling library, Cln2-subtracted | direction not given | binding score | -0.0959
CO[C@H]1CC[C@H](CNc2ccc(S(=O)(=O)NC(=O)c3ccc(N4CCN(CC5=C(c6ccc(Cl)cc6)CC(C)(C)CC5)CC4)cc3Oc3cnc4[nH]ccc4c3)cc2[N+](=O)[O-])CC1 | pknB (Mycobacterium tuberculosis, UniProt P9WI81) | cell-free assay, competition with immobilised ligand | – | 1 µM | – | remaining binding | 86%
P1 R5N | CCNF | yeast growth competition, sequencing | yeast | strong parent motif | baseline: not given, higher = stronger binding | normalised enrichment score | 1.14
P1 R5L | CCNF | yeast growth competition, sequencing | yeast | strong parent motif | baseline: not given, higher = stronger binding | normalised enrichment score | 1.97

For quick reference, copied from above (mixed results):
Molecule | target or system | assay | system | setting | scale | quantity | result
P1 R5N | CCNF | yeast growth competition, sequencing | yeast | strong parent motif | baseline: not given, higher = stronger binding | normalised enrichment score | 1.14
CO[C@H]1CC[C@H](CNc2ccc(S(=O)(=O)NC(=O)c3ccc(N4CCN(CC5=C(c6ccc(Cl)cc6)CC(C)(C)CC5)CC4)cc3Oc3cnc4[nH]ccc4c3)cc2[N+](=O)[O-])CC1 | pknB (Mycobacterium tuberculosis, UniProt P9WI81) | cell-free assay, competition with immobilised ligand | – | 1 µM | – | remaining binding | 86%
